Assay results collected from several papers.
Numbered parts are unrelated; each lists some results of a single study. Substitutions count along the parent as printed.

Series 1 — target: CCNB2, cyclin fold, Cln2 fusion (human); method: yeast growth competition, sequencing; sample: yeast; notes: weak parent motif; reference: not given; direction: higher = stronger binding
Parent: CDC25A docking peptide (human); PPHRRRLLFACSP
| Substitution | normalised enrichment score |
| --- | --- |
| R6D | 0.288 |
| R4L | 0.836 |
| A10T | 0.488 |
| R6Q | 0.619 |
| R4S | -0.205 |

Series 2 — method: RNA Bind-n-Seq; molecule type: RNA; sample: in vitro; tested at: 365 nM; reference: no-protein control; direction: higher = stronger binding
Target: RNA binding protein fox-1 homolog 2, RRM domain, GST-SBP tag (RBFOX2, Homo sapiens, UniProt O43251-10, residues 100-194)
Notes: natural RNA segment, single round, ends assumed
Constant ends, left off below: GGGAGUUCUACAGUCCGACGAUC … UGGAAUUCUCGGGUGCCAA
Target sequence (chain): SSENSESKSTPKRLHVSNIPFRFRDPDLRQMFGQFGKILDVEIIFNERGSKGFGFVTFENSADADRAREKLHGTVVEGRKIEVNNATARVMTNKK
| Strand | RBNS enrichment (R) |
| --- | --- |
| CCGGAUUGGAGCCUUGGCUGCCGUUGAGAAGCACUUACCUGCCAAGAUUUGCUGAUGCCAGACGAUCUACCCCAGCAUGUGAAUGCAUAAUGGACAUUGCCAUCUCUGCC | 1.27 |
| UGUGAGCCAGAUGUAACACUCCAAGCAGCUGUGAAAUGCAAUGUUCCUUUUGCAGGAGUGGCUGUACCUGCAGAAAGCCCAGGGGUCCACAGUACAGUGCAGGAGAAGCA | 11.1 |
| CCAGAAUACACUGGACACCAAGGCCAAGGACGUUCACGUUCUGCCCUCGCUGGGUCCAGCUGACUCUAGCGUCUGCACAGCCUUGUGUGACUCGUGGUGACCUAACCUGA | 0.214 |
| AGUCAGCACAGGCCUAGCAAGGCCCUGACAGCCACAUCGACUGAAGAUUGUCAAGGCGAUAGAAAACCACUGCCAGAAAGACCUGUAAGAAGGGAUUUGUUCUAUACGAG | 0.332 |
| UACACACACACACACUAAAAUAACAUUUAAAAAUAUGUGCCAAAUUAUAUUUGUUCGGGUGCCACCUUCCACCAGCUUACCACUACGGUAGAACUGUCAAAUUCAUCUCC | 0.379 |
| ACUUAAAAGCAGUGUUAGUGAGUUAGGCAGAGAGAUGAAAGUAAUACAGUCAGUAAGUUUCACUGCGUGCACACUGACACGUUUGAGAUUGUAGGAGGACAUAUAAUUCA | 0.317 |
| UUUUAUGAAUAUGGUGAUGAGUUAGUAAAAGUGGCCAUUAUUGGGCUUAUUCUCUGCUCUAUAGUUGUGAAAUGAAGAGUAAAAACAAAUUUGUUUGACUAUUUUAAAAU | 0.627 |

Series 3 — method: RNA Bind-n-Seq; molecule type: RNA; sample: in vitro; tested at: not given; reference: input RNA pool; direction: higher = stronger binding
Target: RING finger protein unkempt homolog, zinc fingers 1-6, GST-SBP tag (UNK, Homo sapiens, UniProt Q9C0B0, residues 30-357)
Chain of UniProt Q9C0B0 (30-357, looked up): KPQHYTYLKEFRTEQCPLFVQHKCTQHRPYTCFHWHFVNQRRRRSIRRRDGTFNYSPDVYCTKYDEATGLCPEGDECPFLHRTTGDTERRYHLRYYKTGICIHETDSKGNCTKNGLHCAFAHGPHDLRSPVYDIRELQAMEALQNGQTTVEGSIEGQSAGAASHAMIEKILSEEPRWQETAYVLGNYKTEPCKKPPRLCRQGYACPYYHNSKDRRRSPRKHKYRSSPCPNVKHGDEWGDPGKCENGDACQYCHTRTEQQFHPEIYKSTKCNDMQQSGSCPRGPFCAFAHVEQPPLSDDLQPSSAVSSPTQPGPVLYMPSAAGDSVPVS
Notes: RNA with constant flanks, human and mouse sites, ends assumed
Constant ends, left off below: GGGAGUUCUACAGUCCGACGAUC … CAACAGAGGAUUGAGCAUCA
| Strand | bound/input enrichment [ratio] |
| --- | --- |
| CUAGGCCAAUUCUGCUUCUCCAUCCCAAAGGAAGAAAAUUUGCCUUCCUUUGCCGACCCUUAGCAGGAAAGCAAAAUUAAAGGAAAAGAUAAAAGGACGCAGAGGGAAAGUGACAGCGAG | 0.504 |
| GAAGCAGAAAGCGAGAGUUAAAGGAGGUGUUUGGUGAUGACUCUGAGAUCUCAAAGGAAUCAUCGGGGGUAAAGAAGCGGCGGAUACCCCGUUUUGAGGAGGUAGAAGAGGAGCCAGAGG | 0.468 |
| GGGAUUUACAUGGUUUAUUGUCGAAAACACAAGAAAACUGCACAUAACUCGGAAGCUGAUUUAGAAGAAAGUUUUAAUGAGCAUGAACUGGAGCCCUCAUCUCCAAAGACUAAGAAGAAA | 0.451 |
| GUGGCAUCAACAUCAAUGAACAGAGAAUCGUCUAGGUCUCAUGCCGUCUUUACAAUUACAAUAGAGUCAAUGGAGAAAAGUAAUGAGAUUGUGAAUAUACGGACCUCCCUACUCAACCUG | 0.17 |
| GGUGGGGUGGUCAUUGCCGUUUGAGCUGCUGAUUUUCAUGAGUCGCCUUCAAAACUCUCGUGUAGGGUUGACAAUGUGGGGGGGUGGGGGAUCCAGCUUAUUCUUUUAUUUUCAAGUCCA | 0.445 |

Other studies, line by line
| Substance | target | test | test system | setting | how to read | quantity | value |
| --- | --- | --- | --- | --- | --- | --- | --- |
| PhoQ, residues 284 288 289 292 302 303 ALVSVA | PhoP, residues 12 14 15 18 19 DLLYY (Escherichia coli, UniProt P23836) | Sort-seq, refers to: YFP reporter | E. coli | PhoQ-PhoP variant library, with: 10 µM Mg2+ | reference: high Mg2+ state, higher = stronger signaling | fold induction | 3.66 |

Some of these lines once more (series 3):
| Strand | bound/input enrichment [ratio] |
| --- | --- |
| GUGGCAUCAACAUCAAUGAACAGAGAAUCGUCUAGGUCUCAUGCCGUCUUUACAAUUACAAUAGAGUCAAUGGAGAAAAGUAAUGAGAUUGUGAAUAUACGGACCUCCCUACUCAACCUG | 0.17 |
| GGUGGGGUGGUCAUUGCCGUUUGAGCUGCUGAUUUUCAUGAGUCGCCUUCAAAACUCUCGUGUAGGGUUGACAAUGUGGGGGGGUGGGGGAUCCAGCUUAUUCUUUUAUUUUCAAGUCCA | 0.445 |
